# Assay results collected from several papers.
# Compare with care: the assays were run in different laboratories. ± marks the error that the study gave.
# UniProt P45984, sequence (whole entry, looked up): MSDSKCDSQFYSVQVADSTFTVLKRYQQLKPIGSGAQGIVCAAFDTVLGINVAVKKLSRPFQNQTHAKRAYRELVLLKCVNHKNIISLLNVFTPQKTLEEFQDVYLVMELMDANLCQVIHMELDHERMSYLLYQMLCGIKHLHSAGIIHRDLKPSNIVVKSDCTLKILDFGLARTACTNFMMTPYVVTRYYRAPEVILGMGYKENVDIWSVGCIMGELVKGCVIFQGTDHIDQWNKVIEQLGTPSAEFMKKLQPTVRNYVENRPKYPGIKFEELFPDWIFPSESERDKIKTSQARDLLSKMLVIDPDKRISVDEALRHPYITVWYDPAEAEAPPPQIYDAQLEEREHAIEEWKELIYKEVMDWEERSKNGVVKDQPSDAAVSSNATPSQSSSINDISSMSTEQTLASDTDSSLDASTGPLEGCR
# UniProt P47713, sequence (whole entry, looked up): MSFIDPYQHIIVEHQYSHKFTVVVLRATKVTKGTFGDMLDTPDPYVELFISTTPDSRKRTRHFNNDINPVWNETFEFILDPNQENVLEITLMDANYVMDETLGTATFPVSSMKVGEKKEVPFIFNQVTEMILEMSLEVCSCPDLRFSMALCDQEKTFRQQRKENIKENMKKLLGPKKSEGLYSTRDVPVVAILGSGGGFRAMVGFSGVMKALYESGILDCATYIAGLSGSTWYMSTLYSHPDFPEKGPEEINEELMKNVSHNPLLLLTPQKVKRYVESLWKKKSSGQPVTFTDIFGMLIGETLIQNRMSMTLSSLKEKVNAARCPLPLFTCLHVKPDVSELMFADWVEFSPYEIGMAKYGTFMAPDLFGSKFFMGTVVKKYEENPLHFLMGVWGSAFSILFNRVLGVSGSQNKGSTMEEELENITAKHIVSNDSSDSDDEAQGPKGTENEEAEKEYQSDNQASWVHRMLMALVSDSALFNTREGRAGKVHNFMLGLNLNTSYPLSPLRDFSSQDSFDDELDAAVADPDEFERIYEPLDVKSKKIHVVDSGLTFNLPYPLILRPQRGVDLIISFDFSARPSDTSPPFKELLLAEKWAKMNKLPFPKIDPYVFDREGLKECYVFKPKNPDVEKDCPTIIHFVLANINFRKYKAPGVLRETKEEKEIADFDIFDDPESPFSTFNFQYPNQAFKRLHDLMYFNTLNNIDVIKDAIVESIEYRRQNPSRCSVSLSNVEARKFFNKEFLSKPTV
# UniProt Q04760, sequence (whole entry, looked up): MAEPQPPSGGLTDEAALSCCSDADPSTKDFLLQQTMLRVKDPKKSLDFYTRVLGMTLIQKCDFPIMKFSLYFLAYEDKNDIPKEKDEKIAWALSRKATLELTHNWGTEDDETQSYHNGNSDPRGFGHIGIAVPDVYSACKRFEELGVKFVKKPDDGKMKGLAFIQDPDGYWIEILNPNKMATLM
# UniProt P34897, sequence (whole entry, looked up): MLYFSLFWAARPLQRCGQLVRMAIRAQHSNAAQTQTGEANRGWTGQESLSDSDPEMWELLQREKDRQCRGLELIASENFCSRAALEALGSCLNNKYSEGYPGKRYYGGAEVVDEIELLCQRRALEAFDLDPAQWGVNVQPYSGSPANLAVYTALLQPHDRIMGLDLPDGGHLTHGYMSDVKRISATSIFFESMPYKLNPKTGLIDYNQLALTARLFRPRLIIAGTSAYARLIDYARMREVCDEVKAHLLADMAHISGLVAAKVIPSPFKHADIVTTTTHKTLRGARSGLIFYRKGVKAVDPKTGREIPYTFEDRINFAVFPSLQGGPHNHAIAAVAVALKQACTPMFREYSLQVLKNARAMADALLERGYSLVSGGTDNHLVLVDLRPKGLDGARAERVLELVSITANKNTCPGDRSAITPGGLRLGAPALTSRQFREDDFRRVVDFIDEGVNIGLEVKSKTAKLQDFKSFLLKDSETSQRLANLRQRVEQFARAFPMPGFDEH
# UniProt P42575, sequence (whole entry, looked up): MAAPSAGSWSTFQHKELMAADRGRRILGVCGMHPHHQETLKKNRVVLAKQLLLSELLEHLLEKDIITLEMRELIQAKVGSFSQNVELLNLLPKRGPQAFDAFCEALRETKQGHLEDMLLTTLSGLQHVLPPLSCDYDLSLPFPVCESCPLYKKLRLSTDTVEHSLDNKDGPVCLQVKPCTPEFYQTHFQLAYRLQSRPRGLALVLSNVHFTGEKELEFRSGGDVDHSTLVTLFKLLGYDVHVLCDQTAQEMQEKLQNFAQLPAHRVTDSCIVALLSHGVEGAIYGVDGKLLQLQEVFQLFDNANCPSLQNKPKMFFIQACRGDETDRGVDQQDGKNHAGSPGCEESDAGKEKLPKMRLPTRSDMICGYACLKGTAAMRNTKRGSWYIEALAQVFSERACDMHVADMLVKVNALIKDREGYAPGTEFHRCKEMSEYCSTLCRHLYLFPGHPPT
# UniProt P14061, sequence (whole entry, looked up): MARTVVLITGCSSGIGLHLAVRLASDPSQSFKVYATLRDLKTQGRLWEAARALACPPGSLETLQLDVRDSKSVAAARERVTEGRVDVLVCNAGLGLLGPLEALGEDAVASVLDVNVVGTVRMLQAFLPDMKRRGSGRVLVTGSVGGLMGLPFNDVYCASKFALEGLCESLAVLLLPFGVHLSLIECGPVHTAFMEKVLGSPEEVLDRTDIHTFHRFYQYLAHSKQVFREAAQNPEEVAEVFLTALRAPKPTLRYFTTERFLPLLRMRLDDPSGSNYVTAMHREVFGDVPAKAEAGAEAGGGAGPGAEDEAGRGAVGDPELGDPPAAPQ
# UniProt Q99436, sequence (whole entry, looked up): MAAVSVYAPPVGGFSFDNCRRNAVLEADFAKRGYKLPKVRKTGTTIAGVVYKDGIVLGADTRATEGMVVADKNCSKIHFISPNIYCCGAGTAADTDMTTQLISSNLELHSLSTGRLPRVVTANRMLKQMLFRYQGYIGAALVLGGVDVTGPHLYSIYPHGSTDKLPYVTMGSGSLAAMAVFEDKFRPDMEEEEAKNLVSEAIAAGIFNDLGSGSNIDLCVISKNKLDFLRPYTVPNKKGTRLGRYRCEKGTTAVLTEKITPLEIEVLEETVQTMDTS
# UniProt P54132, sequence (whole entry, looked up): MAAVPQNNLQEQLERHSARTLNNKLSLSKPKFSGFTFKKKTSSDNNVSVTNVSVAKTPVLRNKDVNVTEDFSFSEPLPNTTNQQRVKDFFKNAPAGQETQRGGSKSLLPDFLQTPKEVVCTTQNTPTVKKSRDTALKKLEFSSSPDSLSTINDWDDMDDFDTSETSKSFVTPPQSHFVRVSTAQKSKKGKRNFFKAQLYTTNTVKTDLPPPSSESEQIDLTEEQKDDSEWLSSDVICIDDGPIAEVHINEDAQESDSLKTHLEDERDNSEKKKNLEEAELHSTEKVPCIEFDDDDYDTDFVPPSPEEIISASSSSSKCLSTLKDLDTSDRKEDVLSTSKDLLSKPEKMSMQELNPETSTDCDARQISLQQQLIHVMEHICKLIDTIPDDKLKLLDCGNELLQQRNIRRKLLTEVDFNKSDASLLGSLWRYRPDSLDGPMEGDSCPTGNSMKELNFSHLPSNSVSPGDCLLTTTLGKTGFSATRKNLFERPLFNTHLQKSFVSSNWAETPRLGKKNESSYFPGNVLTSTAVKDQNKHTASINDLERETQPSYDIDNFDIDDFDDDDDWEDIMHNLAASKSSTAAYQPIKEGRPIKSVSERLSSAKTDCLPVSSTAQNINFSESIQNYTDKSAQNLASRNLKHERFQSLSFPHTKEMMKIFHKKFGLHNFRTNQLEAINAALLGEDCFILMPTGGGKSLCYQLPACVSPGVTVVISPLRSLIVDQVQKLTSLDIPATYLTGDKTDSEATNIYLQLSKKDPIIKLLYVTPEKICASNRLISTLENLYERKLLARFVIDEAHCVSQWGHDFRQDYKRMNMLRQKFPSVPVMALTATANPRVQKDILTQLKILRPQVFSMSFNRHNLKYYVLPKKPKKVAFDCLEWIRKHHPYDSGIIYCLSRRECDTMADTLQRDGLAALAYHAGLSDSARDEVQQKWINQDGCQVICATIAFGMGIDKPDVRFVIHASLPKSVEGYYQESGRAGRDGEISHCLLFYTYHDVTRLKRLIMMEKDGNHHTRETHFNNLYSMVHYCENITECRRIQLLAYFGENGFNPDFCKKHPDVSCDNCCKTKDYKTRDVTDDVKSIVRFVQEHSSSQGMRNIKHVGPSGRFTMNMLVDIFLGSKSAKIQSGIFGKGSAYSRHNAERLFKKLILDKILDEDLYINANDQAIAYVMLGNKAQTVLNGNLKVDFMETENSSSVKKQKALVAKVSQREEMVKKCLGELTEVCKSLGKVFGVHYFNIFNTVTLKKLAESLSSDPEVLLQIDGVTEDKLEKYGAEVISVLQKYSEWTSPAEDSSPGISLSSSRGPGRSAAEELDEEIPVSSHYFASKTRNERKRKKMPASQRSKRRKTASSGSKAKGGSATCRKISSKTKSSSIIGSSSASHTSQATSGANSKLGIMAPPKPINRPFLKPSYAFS
# UniProt P30874, sequence (whole entry, looked up): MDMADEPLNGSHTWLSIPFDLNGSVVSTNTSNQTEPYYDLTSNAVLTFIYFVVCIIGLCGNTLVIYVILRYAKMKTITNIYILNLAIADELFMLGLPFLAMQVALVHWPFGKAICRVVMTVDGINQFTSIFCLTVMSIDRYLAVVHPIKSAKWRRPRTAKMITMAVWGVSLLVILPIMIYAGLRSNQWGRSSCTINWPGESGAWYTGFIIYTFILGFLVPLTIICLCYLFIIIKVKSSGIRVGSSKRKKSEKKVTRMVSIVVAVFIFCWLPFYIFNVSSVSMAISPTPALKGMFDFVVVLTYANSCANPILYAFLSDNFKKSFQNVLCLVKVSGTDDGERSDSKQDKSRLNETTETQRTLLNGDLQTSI
# UniProt P28074, sequence (whole entry, looked up): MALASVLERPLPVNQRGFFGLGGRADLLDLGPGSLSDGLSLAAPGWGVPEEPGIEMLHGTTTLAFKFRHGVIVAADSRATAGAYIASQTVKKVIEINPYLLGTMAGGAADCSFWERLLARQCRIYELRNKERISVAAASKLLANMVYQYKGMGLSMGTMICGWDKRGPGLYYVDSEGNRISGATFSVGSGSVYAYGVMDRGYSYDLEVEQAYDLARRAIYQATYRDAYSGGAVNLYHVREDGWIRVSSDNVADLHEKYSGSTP
SMILES,target,test,test system,conditions,IC50
COc1cc(-c2nc3ccc(C(=O)NCCCN4CCN(C(=O)c5ccccc5)CC4)cc3n2C2CCC2)cc(OC)c1OC,"Activin receptor type-1-like (ACVRL1, Homo sapiens, UniProt P37023)","target engagement in cells, BRET",,,> 30 µM
COc1ccc(Oc2ccc(S(=O)(=O)Nc3ccc4c(c3)N(C)C(=O)C4)cc2)cc1,"Cytosolic phospholipase A2 (Mus musculus, UniProt P47713)",arachidonic acid release,BV-2,together with: A23187,0.02 µM
CC(C)NC(=O)[C@H](CCc1ccccc1)NC(=O)[C@H](CC(=O)NCC(C)(C)C)NC(=O)CCc1ccccc1,"Proteasome subunit beta type-3/PSMB7 (Homo sapiens, UniProt P49720+Q99436)",inhibitor,,,> 100 µM
O=C(Oc1ccccc1)n1c(=O)oc2ccc(Cl)cc21,"UDP-N-acetylglucosamine--peptide N-acetylglucosaminyltransferase 110 kDa subunit (OGT, Homo sapiens, UniProt O15294)","enzyme activity, inhibitor",,"together with: UDP-GlcNAz, Nup62 substrate",6 µM
Cc1cc(NC(=O)c2cccc(-n3cc(NC(=O)Nc4ccccc4Cl)cn3)c2)ccn1,"Mitogen-activated protein kinase 9 (MAPK9, Homo sapiens, UniProt P45984)","enzyme activity, inhibitor",,,0.486 µM
CC(C)(C)NCCCNC(=O)c1ccnc(C(F)(F)F)c1,"Lethal(3)malignant brain tumor-like protein 1 (Homo sapiens, UniProt Q9Y468)","methyl-lysine reader binding, inhibitor, AlphaScreen",,,> 100 µM
CC(C)[C@H](NC(=O)c1ccc2ccccc2n1)C(=O)N[C@@H](CC(=O)O)C(=O)N[C@H](C(=O)N[C@@H](C)C(=O)NC(CC(=O)O)C(=O)COc1c(F)cccc1F)C(C)C (some centres unmarked),"Caspase-2 (Homo sapiens, UniProt P42575)","enzyme activity, inhibitor, absorbance",,,~0.0074 µM
COc1ccc(-c2cc(C(F)(F)F)nc(S(=O)(=O)CCC(=O)Nc3ccc(C)cc3)n2)cc1,"RecQ-like DNA helicase BLM (BLM, Homo sapiens, UniProt P54132)","enzyme activity, inhibitor, ADP detection",,,> 50 µM
CC(C)NCc1ccc(C[C@@H]2NC(=O)[C@@H](Cc3c[nH]c4ccccc34)NC(=O)[C@@H]3CCC(=O)NCCCCCC[C@H](NC(=O)[C@H](Cc4ccc(O)c(I)c4)NC(=O)[C@H]([C@@H](C)O)NC2=O)C(=O)N[C@@H](CO)C(=O)N[C@H](C(=O)O)CSSC[C@H](N)C(=O)N[C@@H](CCCCN)C(=O)N[C@@H](Cc2ccccc2)C(=O)N3)cc1,"Somatostatin receptor type 2 (SSTR2, Homo sapiens, UniProt P30874)","ligand displacement, radioligand",,cell membranes,> 1 µM
C[C@]12CC[C@@H]3c4ccc(O)cc4CC[C@H]3[C@@H]1[C@H](OCC(=O)N1CCOCC1)CC2=O,"17-beta-hydroxysteroid dehydrogenase type 1 (HSD17B1, Homo sapiens, UniProt P14061)","enzyme activity, inhibitor, radiometric",,,5.6 to 7 µM
O=C(O)Cc1cc2c(cc1C(=O)c1ccc(Cl)cc1Cl)OCO2,"Glutamate receptor 1 (Gria1, Rattus norvegicus, UniProt P19490)","ion current, patch clamp",,pH 7.4,4.15 µM
O=C(O)c1c(O)c(/N=N/c2ccccc2)cc2ccccc12,"Lactoylglutathione lyase (GLO1, Homo sapiens, UniProt Q04760)","enzyme activity, inhibitor",,,12.5 µM
COC(=O)CNC(=O)CC[C@@H](C)[C@H]1CC[C@H]2[C@@H]3CC[C@@H]4C[C@H](O)CC[C@]4(C)[C@H]3C[C@H](O)[C@]12C,"Serine hydroxymethyltransferase, mitochondrial (SHMT2, Homo sapiens, UniProt P34897)","serine to glycine conversion, inhibitor",,"pH 7.5, 1% DMSO, together with: L-serine 1 mM, THF 0.2 mM",> 100 µM
C=C(NC(=O)C(=C)NC(=O)c1csc(C2=NC3c4csc(n4)C4NC(=O)c5csc(n5)C(C(C)(O)C(C)O)NC(=O)C5CSC(=N5)C(=CC)NC(=O)C(C(C)O)NC(=O)c5csc(n5)C3(CC2)NC(=O)C(C)NC(=O)C(=C)NC(=O)CNC(=O)C(C(C)CC)NC2C=Cc3c(C(C)O)cc(nc3C2O)C(=O)OC4C)n1)C(N)=O (centres unmarked),"Proteasome Macropain subunit MB1 (PSMB5, Homo sapiens, UniProt P28074)","chymotrypsin-like activity, inhibitor",purified human 20S proteasome,"37 °C, 15 min preincubation, together with: Suc-Leu-Leu-Val-Tyr-AMC",0.76 ± 0.12 µM

# A few entries again:
SMILES,target,test,test system,conditions,IC50
COC(=O)CNC(=O)CC[C@@H](C)[C@H]1CC[C@H]2[C@@H]3CC[C@@H]4C[C@H](O)CC[C@]4(C)[C@H]3C[C@H](O)[C@]12C,"Serine hydroxymethyltransferase, mitochondrial (SHMT2, Homo sapiens, UniProt P34897)","serine to glycine conversion, inhibitor",,"pH 7.5, 1% DMSO, together with: L-serine 1 mM, THF 0.2 mM",> 100 µM
